# Assay results pooled from the literature.
# Compare with care: the assays were run in different laboratories. Numbers after ± are the reported error.
SMILES,test,test system,setting,how to read,measurement,value
CC/C=C\C/C=C\C/C=C\C/C=C\C/C=C\CCCCOC(CC)C(=O)O (stereo not drawn),,"APOE*3Leiden.CETP mice, high-fat/cholesterol diet","dose not given, 20 weeks",relative to: control,hepatic collagen change,-32%
CC(C)c1cnc(-c2cc(Cl)ccc2F)cc1Nc1ccncc1C(=O)NC(CO)CO,item: pSMAD2,"4T1, mouse, 4T1 tumour model, 4T1 tumour",dose not given,,inhibition,60 to 70%
Cc1nc(C)c(C=[N+]([O-])C(C)(C)C)nc1C,"Western blot, item: MEF2D","mouse, MPTP model, substantia nigra nuclei",30 mg/kg,,protein level increase,93%
CCOP(=O)(CC(=O)Nc1ccc(S(=O)(=O)N(CC(N)=O)c2ccc(N(CC(N)=O)S(=O)(=O)c3ccc(OC)cc3)c3ccccc23)cc1)OCC,EMSA,"APP/PS1 mice, hippocampus and frontal cortex",40 mg/kg,,Nrf2-ARE DNA binding,increased
Oc1ncnc2c1sc1sc3c(O)ncnc3c12,ABTS,,concentration not given,,radical scavenging,64%
Cc1ccc(S(=O)(=O)N(CCc2nnc(S)n2N)c2ccc(Cl)cc2)cc1,analgesia,rat tail flick radiant heat,200 mg/kg,,protection,93.8%
CC[C@H](C)[C@@H]1NC(=O)[C@H](Cc2ccc(O)cc2)NC(=O)[C@@H](N)CSSC[C@@H](C(=O)N2CCC[C@H]2C(=O)N[C@@H](CCCCNC(=O)COCCOCCNC(=O)COCCOCCNC(=O)CC[C@H](NC(=O)CC[C@H](NC(=O)CCCCCCCCCCCCCCCCC(=O)O)C(=O)O)C(=O)O)C(=O)NCC(N)=O)NC(=O)[C@H](CC(N)=O)NC(=O)[C@H](CCC(N)=O)NC1=O,RT-PCR,"C57BL/6 mice, diet-induced obese, liver","subcutaneous, dose not given, 14 days",,FGF21 mRNA level,increased
COc1ccc(C2CC(c3ccc(C)cc3)=Nc3ccccc3S2)cc1 (stereo not drawn),,"Wistar rat, STZ-induced diabetes","oral, 10 mg/kg once daily, day 21",,body weight,180 ± 4.76 g
Cc1cc(O)c(C=O)c2c1C(=O)Oc1c(CO)c(O)c3c(c1O2)C(O)OC3=O (stereo not drawn),copulatory behaviour test,"rat, male, streptozotocin-induced diabetes","5 mg/kg, day 63",,Ejaculatory latency,999 ± 94.2 s
COC(=O)[C@H](CSSC(C)(C)[C@H](NC(=O)[C@H](CCC(=O)NC[C@H](O)[C@@H](O)[C@H](O)[C@H](O)CO)NC(=O)[C@H](CCC(=O)O)NC(=O)[C@H](CCC(=O)NC[C@H](O)[C@@H](O)[C@H](O)[C@H](O)CO)NC(=O)[C@H](CCC(=O)O)NC(=O)[C@H](CCC(=O)NC[C@H](O)[C@@H](O)[C@H](O)[C@H](O)CO)NC(=O)CC[C@H](NC(=O)c1ccc(NCc2cnc3nc(N)[nH]c(=O)c3n2)cc1)C(=O)O)C(=O)O)NC(=O)CC[C@H](NC(=O)c1ccc(NCc2cnc3nc(N)nc(N)c3n2)cc1)C(=O)O,item: periarticular inflammation,"Lewis rat, adjuvant-induced arthritis",500 nmol/kg twice weekly × 2,direction not given,histological score decrease,~84%
C=C(c1ccc(C(=O)O)c(F)c1)c1cc2c(cc1C)C(C)(C)C=CC2(C)C,"RNA sequencing, item: Nmu","rat, brain","dose not given, 24 h",relative to: vehicle,log2 fold change,-0.24
C[C@@H](NC(=O)Cc1ccc(Cl)c(SC2C(=O)CC(c3c(Cl)cccc3Cl)CC2=O)c1)c1cccc2ccccc12 (stereo partly drawn),flow cytometry,"C57BL/6 mice, B16-F10 melanoma allograft, tumour","intratumoral, 50 mg/kg/day, 7 days",,IFN-γ+ CD4+ T cells,increased
CC(C)[C@H](NC(=O)CN)C(=O)N[C@@H](CCCCN)C(=O)NCC(=O)N[C@@H](CC(=O)O)C(=O)N[C@@H](CCCCN)C(=O)NCC(=O)N[C@@H](CC(N)=O)C(=O)N1CCC[C@H]1C(=O)NCC(=O)N[C@@H](Cc1c[nH]c2ccccc12)C(=O)N1CCC[C@H]1C(=O)NCC(=O)N[C@@H](C)C(=O)N1CCC[C@H]1C(=O)O,,"SCC-9 squamous cell carcinoma, human","100 µg/mL coating, peptide-coated plates",,spreading cells,0%
COC(=O)N1c2ccc3c(nc(Cc4ccccc4)n3[C@@H]3CCC[C@@H](C(=O)O)C3)c2CC[C@@H]1C,,"mouse, breast cancer PDX","oral, 50 mg/kg, 4 days/week, 45 days",,responding ER+ AR+ xenografts,67%
COc1ccc(C2CC(c3ccc(C)cc3)=Nc3ccccc3S2)cc1OC (stereo not drawn),,"Wistar rat, STZ-induced diabetes","oral, 20 mg/kg once daily, day 1",,body weight,192 ± 4.91 g
CN1CCC[C@]1(C)/C=C/S(=O)(=O)NC(=O)Nc1c2c(cc3c1CCC3)CCC2,"IL-1β release, ex vivo whole blood","human, whole blood","oral, 250 mg single dose, 24 h, with: LPS and ATP",,inhibition,> 90%
C=C1C[C@@]23CC[C@H]4[C@@](C)(CCC[C@@]4(C)C(=O)O[C@@H]4O[C@H](CO)[C@@H](O)[C@H](O)[C@H]4O)[C@@H]2CC[C@]1(O[C@@H]1O[C@H](CO[C@H]2O[C@H](CO)[C@@H](O)[C@H](O)[C@H]2O)[C@@H](O)[C@H](O)[C@H]1O[C@@H]1O[C@H](CO)[C@@H](O)[C@H](O)[C@H]1O)C3,"qPCR, item: Cox5b","C57BL/6N mice, high-fat diet, brown adipose tissue","drinking water, 0.2 g/L, 16 weeks",,mRNA level,increased
CCN(CC)C(=O)c1ccc(-c2cc(NCCCN3CCCCC3)c3ccccc3n2)cc1,,diet-induced obese mice,"food admixture, 0.05% w/w in diet, 2 weeks",,fasting insulin,decreased
CSCC[C@@H]1NC(=O)[C@H](CCCCN)NC(=O)[C@H]([C@@H](C)O)NC(=O)[C@H](CCCCN)NC(=O)[C@H](CC(C)C)NC(=O)[C@H](CCCCN)NC(=O)[C@H](CCCNC(=N)N)NC(=O)[C@@H]2CSSC[C@@H]3NC(=O)[C@@H]4CCCN4C(=O)[C@H](C(C)C)NC(=O)[C@H](CCC(N)=O)NC(=O)[C@H](CCC(N)=O)NC(=O)CNC(=O)[C@H](CC(C)C)NC(=O)[C@@H]4CSSC[C@H](NC(=O)[C@H]([C@@H](C)O)NC(=O)[C@H](C)NC(=O)[C@H](CSSC[C@@H](C(=O)N[C@@H](CO)C(=O)N[C@@H](CCCNC(=N)N)C(=O)N[C@H](C(N)=O)[C@@H](C)O)NC(=O)[C@@H]5CCCN5C(=O)[C@H](CC(N)=O)NC1=O)NC(=O)[C@@H]1CCCN1C(=O)[C@H](CC(=O)O)NC(=O)[C@H](CSSC[C@H](NC(=O)[C@H](CCCNC(=N)N)NC(=O)[C@H](CCCNC(=N)N)NC(=O)[C@H](CO)NC(=O)[C@@H](N)CO)C(=O)N[C@@H](C(C)C)C(=O)N[C@@H](CCCNC(=N)N)C(=O)N[C@@H](CC(C)C)C(=O)N[C@@H](Cc1c[nH]cn1)C(=O)N[C@@H](CCC(=O)O)C(=O)N[C@@H](CO)C(=O)N4)NC3=O)C(=O)N[C@@H](Cc1ccc(O)cc1)C(=O)N[C@H]1CSSC[C@H](NC(=O)[C@H](Cc3ccccc3)NC(=O)[C@H](C)NC(=O)[C@H](CC(N)=O)NC(=O)[C@H](Cc3ccccc3)NC(=O)[C@H](Cc3ccccc3)NC(=O)[C@H](CCCNC(=N)N)NC1=O)C(=O)N[C@@H](Cc1ccc(O)cc1)C(=O)N2,,"Long-Evans rat, male","intracerebroventricular, 1.0 nmol, 5 days",,body weight change,25.2 ± 3.5 g
CCCCCCCCCCCCCCCC(=O)N[C@@H](CCCCN)C(=O)N[C@@H](CCCCN)C(=O)N[C@@H](CO)C(=O)N[C@@H](CCCNC(=N)N)C(=O)N[C@@H](C)C(=O)N[C@@H](CC(C)C)C(=O)N[C@@H](Cc1ccccc1)C(N)=O,,guinea pig,"intravenous infusion, above 0.05 mg/kg, 10 min infusion, maximum 60 min",relative to: vehicle,occlusion time increase,4 fold
CC(C)C[C@H](NC(=O)[C@H](CCCNC(=N)N)NC(=O)CNC(=O)[C@@H](N)CC(C)C)C(=O)N[C@@H](CO)C(=O)N[C@@H](CCC(N)=O)C(=O)N[C@@H](CCC(=O)O)C(=O)N[C@@H](CC(C)C)C(=O)N[C@@H](Cc1c[nH]cn1)C(=O)N[C@@H](CCCNC(=N)N)C(=O)N[C@@H](CC(C)C)C(=O)N[C@@H](CCC(N)=O)C(=O)N[C@H](C(=O)N[C@@H](Cc1ccc(O)cc1)C(=O)N1CCC[C@H]1C(=O)N[C@@H](CCCNC(=N)N)C(=O)N[C@H](C(=O)N[C@@H](CC(N)=O)C(=O)N[C@H](C(=O)NCC(=O)N[C@@H](CO)C(=O)N[C@@H](CC(N)=O)C(=O)N[C@H](C(=O)N[C@@H](Cc1ccc(O)cc1)C(N)=O)[C@@H](C)O)[C@@H](C)O)[C@@H](C)O)[C@@H](C)O,ELISA,"TgCRND8 mice, brain","icv, dose not given, 5 months",relative to: vehicle,soluble Aβ1-42 level,no effect
CC[C@H](C)[C@@H]1NC(=O)[C@H](Cc2ccccc2)NC(=O)[C@H](CCC(=O)O)NC(=O)[C@H](CCCNC(=N)N)NC(=O)CNC(=O)[C@@H](NC(=O)[C@H](CC(C)C)NC(=O)[C@H](CCCNC(=N)N)NC(=O)[C@@H](NC(=O)CNC(=O)[C@H](Cc2ccc(O)cc2)NC(=O)[C@@H]2CCCN2C(=O)[C@H](C)NC(=O)[C@H](C)NC(=O)[C@@H](N)CCCNC(=N)N)C(C)C)CSSC[C@@H]2NC(=O)[C@@H](NC(=O)[C@H](CO)NC(=O)[C@H](CO)NC(=O)[C@H](CO)NC(=O)[C@H](CC(C)C)NC(=O)CNC(=O)[C@H](C)NC(=O)[C@H](CC(C)C)NC(=O)[C@@H](NC(=O)[C@@H](N)CC(=O)O)C(C)C)CSSC[C@H](NC(=O)CNC(=O)[C@H](Cc3c[nH]c4ccccc34)NC(=O)[C@H](CCCCN)NC2=O)C(=O)N[C@@H](CO)C(=O)N[C@@H](CCCCN)C(=O)N[C@@H](CO)C(=O)N[C@@H](CCC(=O)O)C(=O)N[C@@H]([C@@H](C)CC)C(=O)N[C@@H](CO)C(=O)N[C@@H](CO)C(=O)N[C@@H](CC(C)C)C(=O)N[C@H](C(=O)O)CSSC[C@@H](C(=O)NCC(=O)NCC(=O)N[C@@H](CO)C(=O)N[C@@H](CCCNC(=N)N)C(=O)N[C@@H](Cc2c[nH]c3ccccc23)C(=O)O)NC(=O)[C@H]([C@@H](C)O)NC(=O)[C@H](Cc2ccccc2)NC(=O)[C@H]([C@@H](C)CC)NC(=O)[C@H](C(C)C)NC(=O)[C@H](C)NC(=O)[C@H](CCCNC(=N)N)NC1=O,open field test,female Sprague-Dawley rats,"intranasal, 275 µg/kg, 30 min predose",relative to: vehicle,centre time and latency,increased
CC[C@H](C)[C@H](NC(=O)[C@H](CC(N)=O)NC(=O)[C@H](CC(N)=O)NC(=O)[C@H](CCCNC(=N)N)NC(=O)[C@H](CC(N)=O)NC(=O)[C@H](CCCNC(=N)N)NC(=O)[C@H](CCCCN)NC(=O)[C@@H](NC(=O)[C@H](CC(N)=O)NC(=O)[C@H](CCSC)NC(=O)[C@H](CC(C)C)NC(=O)[C@H](Cc1c[nH]c2ccccc12)NC(=O)[C@H](CCC(N)=O)NC(=O)[C@@H](NC(=O)[C@H](Cc1ccccc1)NC(=O)[C@H](CC(=O)O)NC(=O)[C@H](CCC(N)=O)NC(=O)[C@H](C)NC(=O)[C@H](CCCNC(=N)N)NC(=O)[C@H](CCCNC(=N)N)NC(=O)[C@H](CO)NC(=O)[C@H](CC(=O)O)NC(=O)[C@H](CC(C)C)NC(=O)[C@H](Cc1ccc(O)cc1)NC(=O)[C@H](CCCCN)NC(=O)[C@H](CO)NC(=O)[C@H](Cc1ccc(O)cc1)NC(=O)[C@H](CC(=O)O)NC(=O)[C@H](CO)NC(=O)[C@@H](NC(=O)[C@H](Cc1ccccc1)NC(=O)[C@@H](NC(=O)CNC(=O)[C@H](CCC(=O)O)NC(=O)[C@@H](CO)NC(=O)[C@@H](N)Cc1c[nH]cn1)[C@@H](C)O)[C@@H](C)O)C(C)C)[C@@H](C)O)C(=O)N[C@@H](C)C(=O)N[C@@H](CSCC(=O)NCCOCCOCCOCCOCCC(=O)O[C@H]1CC[C@@]2(C)C(=CC[C@H]3[C@@H]4CC[C@H]([C@H](C)CCCC(C)C)[C@@]4(C)CC[C@@H]32)C1)C(N)=O,,diet-induced obese mice,"subcutaneous, 1.9 µmol/kg every other day, 14 days",relative to: vehicle,cumulative food intake reduction,12%
CC(NCCc1nsc2ccccc12)c1cccc2c1OCO2 (stereo not drawn),PTH secretion inhibition,"C57BL/6 mouse, ex vivo parathyroid glands",with: extracellular Ca2+ 0.75 mM,,IC50,583 nM

# Excerpt of the above:
SMILES,test,test system,setting,how to read,measurement,value
C=C(c1ccc(C(=O)O)c(F)c1)c1cc2c(cc1C)C(C)(C)C=CC2(C)C,"RNA sequencing, item: Nmu","rat, brain","dose not given, 24 h",relative to: vehicle,log2 fold change,-0.24
C[C@@H](NC(=O)Cc1ccc(Cl)c(SC2C(=O)CC(c3c(Cl)cccc3Cl)CC2=O)c1)c1cccc2ccccc12 (stereo partly drawn),flow cytometry,"C57BL/6 mice, B16-F10 melanoma allograft, tumour","intratumoral, 50 mg/kg/day, 7 days",,IFN-γ+ CD4+ T cells,increased
